# Experimental data gathered from unrelated publications.
# Lines come from different studies, so protocols differ. Values joined by “and” are separate records of one study, mostly repeats; a detail may differ. ± marks the error that the study gave.
SMILES,assay,test system,conditions,how to read,quantity,value
CC(C)C[C@H](NC(=O)[C@H](CCCCN)NC(=O)[C@H](CCCCN)NC(=O)[C@H](CCCNC(=N)N)NC(=O)[C@H](Cc1ccccc1)NC(=O)[C@H](CCCNC(=N)N)NC(=O)[C@H](CCCCN)NC(=O)[C@H](Cc1ccccc1)NC(=O)[C@H](CCCNC(=N)N)NC(=O)CN)C(=O)NCCCC[C@H](NC(=O)[C@H](CC(C)C)NC(=O)[C@H](CCCCN)NC(=O)[C@H](CCCCN)NC(=O)[C@H](CCCNC(=N)N)NC(=O)[C@H](Cc1ccccc1)NC(=O)[C@H](CCCNC(=N)N)NC(=O)[C@H](CCCCN)NC(=O)[C@H](Cc1ccccc1)NC(=O)[C@H](CCCNC(=N)N)NC(=O)CN)C(=O)NCCCC[C@H](NC(=O)[C@H](CCCCNC(=O)[C@H](CC(C)C)NC(=O)[C@H](CCCCN)NC(=O)[C@H](CCCCN)NC(=O)[C@H](CCCNC(=N)N)NC(=O)[C@H](Cc1ccccc1)NC(=O)[C@H](CCCNC(=N)N)NC(=O)[C@H](CCCCN)NC(=O)[C@H](Cc1ccccc1)NC(=O)[C@H](CCCNC(=N)N)NC(=O)CN)NC(=O)[C@H](CC(C)C)NC(=O)[C@H](CCCCN)NC(=O)[C@H](CCCCN)NC(=O)[C@H](CCCNC(=N)N)NC(=O)[C@H](Cc1ccccc1)NC(=O)[C@H](CCCNC(=N)N)NC(=O)[C@H](CCCCN)NC(=O)[C@H](Cc1ccccc1)NC(=O)[C@H](CCCNC(=N)N)NC(=O)CN)C(=O)NCCC(=O)O,,human red blood cells,"2 h, 37 °C",,hemolytic concentration,~15 µM
Cc1ncnc2c1ccn2[C@@H]1C[C@H](Oc2cc(C(F)F)c(F)c3c2CNCC3)[C@@H](O)[C@H]1O,,patients,"dose not given, any grade",baseline: patients,Dyspnea incidence,8%
N.N.[Cl][Pt][Cl],,"mouse, serum",dose not given,,ALT,34 IU/L and 59 IU/L and 57 IU/L
COc1cc2c(Oc3ccc4[nH]c(C)cc4c3F)ccnc2cc1OCC1(N)CC1,,paediatric recurrent refractory sarcoma,"concentration not given, whole group",,grade 3 Myalgia,0%
O=c1ccc2ccc3occc3c2o1,post-procedure stability,rat plasma,"8 ng/mL, 1 h, room temperature",,accuracy,91.5%
c1csc(CNc2cc[nH]n2)c1,micronucleus,"CD-1 mouse Hsd:ICR(CD-1), male, bone marrow","oral, 500 mg/kg/day, 3 days",,PCE to total erythrocyte ratio,0.505
COc1ncccc1-c1cnn2ccc(N3CCN(C(=O)OC(C)C)CC3)nc12,,"mouse, open field test, plasma","oral, 10 mg/kg, 60 min",,drug concentration,3.5 µM
Cc1noc(C)c1Cn1cc(N2C(=O)CN(Cc3cccc(O)c3)C2=O)cn1,,"CD-1 mouse, male, bone marrow","1000 mg/kg/day, 24 h",,PCE proportion,44.2%
CO[C@H]1C[C@@H]2CC[C@@H](C)[C@@](O)(O2)C(=O)C(=O)N2CCCC[C@H]2C(=O)O[C@H]([C@H](C)C[C@@H]2CC[C@@H](OC(=O)NCCOCCOCCOCCOCCOCCOCCOCCOCCC(=O)N3CCc4cc(Cn5nc(-c6ccc7oc(N)nc7c6)c6c(N)ncnc65)ccc4C3)[C@H](OC)C2)C[C@@H](O)[C@H](C)/C=C(\C)[C@@H](O)[C@@H](OC)C(=O)[C@H](C)C[C@H](C)/C=C/C=C/C=C/1C,"phase 1 dose escalation, refers to: mucositis",advanced solid tumour patients,"intravenous, 8 mg weekly, any grade",,TRAE incidence,43.8%
C[C@@H](NC(=O)N1C(=O)[C@H](Cc2ccnc(N)c2)[C@H]1C(=O)O)C1CCCCC1,,healthy adult Chinese volunteers,"continuous intravenous infusion, 2.25 mg/kg/h, 5-day infusion, CTCAE 5.0 grading",,abnormal liver function leading to discontinuation,25%
CCCCCOc1ccc(-c2ccc(-c3ccc(C(=O)N[C@H]4C[C@@H](O)[C@@H](OCC[N+](C)(C)C)NC(=O)[C@@H]5[C@@H](O)[C@@H](C)CN5C(=O)[C@H]([C@@H](C)O)NC(=O)[C@H]([C@H](O)[C@@H](O)c5ccc(O)cc5)NC(=O)[C@@H]5C[C@@H](O)CN5C(=O)[C@H]([C@@H](C)O)NC4=O)cc3)cc2)cc1,,"adult patients not in ICU, plasma","intravenous, 400 mg loading dose, after first dose, median",,Cmin,2310 ng/mL
CN1CC[C@@H](c2c(O)cc(O)c3c(=O)cc(-c4ccc(C(F)(F)F)cc4Cl)oc23)[C@@H]1CO,refers to: Hypoalbuminemia,relapsed B-cell malignancies or AML,"oral, 50 mg, grade 3-4, continuous dosing",,patients with adverse event,0%
Cc1cc(C)c(CNC(=O)c2cc(Cl)c3c(c2C)O[C@@](C)([C@H]2CC[C@H](N(C)C)CC2)O3)c(=O)[nH]1,,relapsed/refractory NHL patients,"dose not given, trial, safety set, all TEAEs grade 5",,incidence of INR increased,0%
O=C(c1ccc(F)c(F)c1Nc1ccc(I)cc1F)N1CC(O)([C@@H]2CCCCN2)C1,,human patients,"oral, 1 mg/kg, dose expansion",,fatal adverse events,0%
O=C(O)CCCOc1ccc(F)cc1-c1cc(-c2ccccc2C(F)(F)F)n(-c2ccccc2)n1,refers to: γ-glb,"Crl:CD(SD) rats, male, serum","iv, 25 µg/kg, 14 days",,serum protein fraction,4.3 ± 0.7%
CC(C)[C@@H]1NC(=O)CNC(=O)[C@H](CC(N)=O)NC(=O)[C@H](CCCNC(=N)N)NC(=O)[C@H](Cc2ccc(O)cc2)NC(=O)[C@H](C(C)C)NC(=O)[C@@H](NC(=O)[C@@H](NC(=O)[C@H](CC(N)=O)NC(=O)[C@H](Cc2c[nH]c3ccccc23)NC(=O)[C@H](C)NC(=O)[C@H](Cc2ccccc2)NC(=O)CN)C(C)C)CSSC[C@@H](C(=O)N[C@@H](Cc2cnc[nH]2)C(=O)N[C@@H](CCCNC(=N)N)C(=O)N[C@@H](CCCNC(=N)N)C(=O)N[C@@H](C)C(=O)N[C@@H](CC(N)=O)C(N)=O)NC(=O)[C@H](C(C)C)NC(=O)[C@H](CCCNC(=N)N)NC1=O,,"ICR mouse, blood","intramammary, 10 mg/kg, day 5, 3 d dosing",,ALT,51.8 ± 1.84 IU/L
[18FH],,"BALB/c mouse, small intestine","intravenous, 1 h",,tissue uptake,0.58 ± 0.3 %ID/g
COc1ncnn2ccc(-c3cnc4nc(C)n(Cc5nnc([C@@H](C)F)o5)c4c3)c12,phase 1 trial,human patients,"oral, dose not given, CTCAE grade 4",,patients with decreased WBC count,7.1%
N=C(CC(O)c1cc2c(F)cc(F)cc2c2cc(C(F)(F)F)ccc12)Nc1ccc(F)c(F)c1 (stereo not shown),,human blood,"2.5 ng/mL, 30 min",,blood-to-plasma ratio,0.97 ± 0.03
CC(C)Nc1ccnc(Nc2cccc(-c3cccnc3)c2)n1,refers to: ALT,"mouse, blood","intraperitoneal, 5 mg/kg",,blood chemistry,45 U/L
CC(=O)c1c(C)c2cnc(Nc3ccc(C4CCN(CCS(C)(=O)=O)CC4)cn3)nc2n(C2CCCC2)c1=O,,"human, dose-escalation trial, plasma","oral, 150 mg twice daily, day 1, single dose",,AUC(0-t),3730 ng·h/mL
Clc1ccc(-c2ccccc2)cc1,,"Sprague-Dawley rats, female, serum","inhalation, 23 µg/rat, 1 h after exposure",,calcium,11 ± 2 mg/dL
COc1ccc(-c2c(-c3ccc(C#N)c(F)c3)nc(N3CCC(N)CC3)n(C)c2=O)cc1F,refers to: Constipation,neuroendocrine neoplasm patients,"oral, 60 mg, any grade, dose expansion",,treatment-related adverse event incidence,6%
NCCCC[C@@H]1NC(=O)[C@@H](Cc2c[nH]c3ccccc23)NC(=O)[C@H](c2ccccc2)NC(=O)[C@@H]2C[C@@H](OC(=O)NCCN)CN2C(=O)[C@H](Cc2ccccc2)NC(=O)[C@H](Cc2ccc(OCc3ccccc3)cc2)NC1=O,,healthy human volunteers,1950 µg twice daily,,subjects with adverse event Diarrhoea,86%
CC(C)[C@H](C(=O)O[C@H](C#N)c1cccc(Oc2ccccc2)c1)c1ccc(Cl)cc1,refers to: CYP2B6,"human, age 5 years",,,enzyme contribution to clearance,0.78%
O=C(Nc1ccccc1)C1CCN(C(=O)Oc2cccnc2)CC1,adverse event reporting,healthy women,"oral, 20 mg, 7 days",,subjects with Overall adverse event,85.7%
CC(C)[C@@H]1CC[C@@H](C)C[C@@H]1O,acute oral toxicity OECD,"Swiss albino mice, serum","oral, 300 mg/kg",,triglycerides,91.4 ± 4.85 mg/dL
N#C[C@@]1(c2ccc3c(N)ncnn23)O[C@H](CO)[C@@H](O)[C@H]1O,,human,"dose not given, CYP3A induction, with: carbamazepine",,change in exposure,≤ 20%
CC(C)c1nc(CN(C)C(=O)N[C@@H](CCN2CCOCC2)C(=O)N[C@H](CC[C@H](Cc2ccccc2)NC(=O)OCc2cncs2)Cc2ccccc2)cs1,,human,"oral, 150 mg, drug interaction trial",,deaths,0%
CN(C)C(=O)c1cc2cnc(Nc3ccc(N4CCNCC4)cn3)nc2n1C1CCCC1,refers to: acute respiratory failure,HR+/HER2− advanced breast cancer patients,"oral, dose not given, not drug-related",,serious adverse event incidence,0.3%
COc1ccc2nc3cc(Cl)ccc3c(Nc3cc(CN4CCCC4)c(O)c(CN4CCCC4)c3)c2n1,,"mouse, blood","oral, 57 mg/kg",,white blood cell count,8.22 10⁹/L
C[C@]1(CO)Cc2ncn(-c3ccc(C#N)c(Cl)c3)c2C(=O)O1,,"human, Chinese",80 mg single dose,,subjects with drug-related acne,0%
CC(C)(O)c1cc(Nc2cc(Oc3cn(C4CC4)nc3C3CCOCC3)ccn2)ccn1,refers to: Constipation,Japanese patients with advanced cancer,"oral, dose not given, any grade",,treatment-emergent adverse events,22%
[Cl][212Pb][Cl],refers to: 212Pb,"athymic mouse, C4-2 prostate xenograft, salivary gland","intravenous, dose not given, 2 h",,tissue uptake,not detected
CC(=O)c1c(C)c2cnc(Nc3ccc(N4CCNCC4)cn3)nc2n(C2CCCC2)c1=O,,C57BL/6 mice,intraperitoneal,,maximum tolerated dose,25 mg/kg
CCc1ccc(CC/C=C/c2ccc3c(c2)C(=O)CC3)cc1,,"Sprague-Dawley rat, female, blood","oral, 120 mg/kg/day, 14 days",,hematocrit,46.4%
CC(C)C[C@H](NC(=O)[C@H](CCC(N)=O)NC(=O)[C@H](C)NC(=O)[C@H](C)NC(=O)[C@H](CCCNC(=N)N)NC(=O)[C@H](CCCNC(=N)N)NC(=O)[C@H](CCCNC(=N)N)NC(=O)[C@H](CC(C)C)NC(=O)[C@H](Cc1c[nH]cn1)NC(=O)[C@@H](NC(=O)[C@H](CCCCN)NC(=O)[C@H](CCCNC(=N)N)NC(=O)[C@H](CCCNC(=N)N)NC(=O)[C@H](CCCNC(=N)N)NC(=O)[C@H](CCC(N)=O)NC(=O)[C@H](CCCNC(=N)N)NC(=O)[C@H](CCCNC(=N)N)NC(=O)[C@H](CCCCN)NC(=O)[C@H](CCCCN)NC(=O)[C@H](CCCNC(=N)N)NC(=O)CNC(=O)[C@@H](N)Cc1ccc(O)cc1)[C@@H](C)O)C(=O)N[C@@H](CCCCN)C(N)=O,hanging wire test,rat,"intra-CA1 bilateral, dose not given",baseline: saline,latency to fall,no effect

# A few entries again:
SMILES,assay,test system,conditions,how to read,quantity,value
CN(C)C(=O)c1cc2cnc(Nc3ccc(N4CCNCC4)cn3)nc2n1C1CCCC1,refers to: acute respiratory failure,HR+/HER2− advanced breast cancer patients,"oral, dose not given, not drug-related",,serious adverse event incidence,0.3%
COc1ccc2nc3cc(Cl)ccc3c(Nc3cc(CN4CCCC4)c(O)c(CN4CCCC4)c3)c2n1,,"mouse, blood","oral, 57 mg/kg",,white blood cell count,8.22 10⁹/L
C[C@]1(CO)Cc2ncn(-c3ccc(C#N)c(Cl)c3)c2C(=O)O1,,"human, Chinese",80 mg single dose,,subjects with drug-related acne,0%
CC(C)(O)c1cc(Nc2cc(Oc3cn(C4CC4)nc3C3CCOCC3)ccn2)ccn1,refers to: Constipation,Japanese patients with advanced cancer,"oral, dose not given, any grade",,treatment-emergent adverse events,22%
[Cl][212Pb][Cl],refers to: 212Pb,"athymic mouse, C4-2 prostate xenograft, salivary gland","intravenous, dose not given, 2 h",,tissue uptake,not detected
